Published values from different studies.
Parts stem from different laboratories: compare values within a part only.
Chain of UniProt Q9UBE8 (whole entry, looked up): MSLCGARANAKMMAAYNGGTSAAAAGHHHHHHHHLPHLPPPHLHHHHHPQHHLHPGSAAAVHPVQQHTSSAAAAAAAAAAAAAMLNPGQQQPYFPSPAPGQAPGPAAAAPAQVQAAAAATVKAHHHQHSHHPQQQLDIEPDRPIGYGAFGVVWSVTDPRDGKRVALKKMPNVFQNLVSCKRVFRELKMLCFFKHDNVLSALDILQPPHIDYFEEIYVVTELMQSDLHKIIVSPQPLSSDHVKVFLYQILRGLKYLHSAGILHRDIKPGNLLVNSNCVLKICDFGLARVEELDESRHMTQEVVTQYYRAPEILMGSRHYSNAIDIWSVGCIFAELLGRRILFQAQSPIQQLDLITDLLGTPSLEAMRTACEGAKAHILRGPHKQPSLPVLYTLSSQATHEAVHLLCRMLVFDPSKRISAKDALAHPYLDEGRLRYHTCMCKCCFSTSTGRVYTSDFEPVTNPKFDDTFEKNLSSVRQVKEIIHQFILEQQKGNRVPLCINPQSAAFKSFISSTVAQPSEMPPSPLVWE
Chain of UniProt Q99755 (whole entry, looked up): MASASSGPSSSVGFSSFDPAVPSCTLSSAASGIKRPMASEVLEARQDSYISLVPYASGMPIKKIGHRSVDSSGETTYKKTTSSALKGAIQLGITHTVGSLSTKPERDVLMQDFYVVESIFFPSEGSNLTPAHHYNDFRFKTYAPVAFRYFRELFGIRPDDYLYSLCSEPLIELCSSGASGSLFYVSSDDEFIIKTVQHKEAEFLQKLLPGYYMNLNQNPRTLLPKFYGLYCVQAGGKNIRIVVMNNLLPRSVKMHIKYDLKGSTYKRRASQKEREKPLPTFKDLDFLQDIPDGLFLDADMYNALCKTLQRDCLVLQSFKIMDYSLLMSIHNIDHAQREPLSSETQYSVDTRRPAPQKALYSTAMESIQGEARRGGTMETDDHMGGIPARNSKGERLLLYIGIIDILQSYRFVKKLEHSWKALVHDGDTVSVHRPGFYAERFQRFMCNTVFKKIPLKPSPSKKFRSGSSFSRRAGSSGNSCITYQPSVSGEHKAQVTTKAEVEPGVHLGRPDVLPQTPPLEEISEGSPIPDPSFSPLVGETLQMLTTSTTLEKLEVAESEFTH
Chain of UniProt P54753 (whole entry, looked up): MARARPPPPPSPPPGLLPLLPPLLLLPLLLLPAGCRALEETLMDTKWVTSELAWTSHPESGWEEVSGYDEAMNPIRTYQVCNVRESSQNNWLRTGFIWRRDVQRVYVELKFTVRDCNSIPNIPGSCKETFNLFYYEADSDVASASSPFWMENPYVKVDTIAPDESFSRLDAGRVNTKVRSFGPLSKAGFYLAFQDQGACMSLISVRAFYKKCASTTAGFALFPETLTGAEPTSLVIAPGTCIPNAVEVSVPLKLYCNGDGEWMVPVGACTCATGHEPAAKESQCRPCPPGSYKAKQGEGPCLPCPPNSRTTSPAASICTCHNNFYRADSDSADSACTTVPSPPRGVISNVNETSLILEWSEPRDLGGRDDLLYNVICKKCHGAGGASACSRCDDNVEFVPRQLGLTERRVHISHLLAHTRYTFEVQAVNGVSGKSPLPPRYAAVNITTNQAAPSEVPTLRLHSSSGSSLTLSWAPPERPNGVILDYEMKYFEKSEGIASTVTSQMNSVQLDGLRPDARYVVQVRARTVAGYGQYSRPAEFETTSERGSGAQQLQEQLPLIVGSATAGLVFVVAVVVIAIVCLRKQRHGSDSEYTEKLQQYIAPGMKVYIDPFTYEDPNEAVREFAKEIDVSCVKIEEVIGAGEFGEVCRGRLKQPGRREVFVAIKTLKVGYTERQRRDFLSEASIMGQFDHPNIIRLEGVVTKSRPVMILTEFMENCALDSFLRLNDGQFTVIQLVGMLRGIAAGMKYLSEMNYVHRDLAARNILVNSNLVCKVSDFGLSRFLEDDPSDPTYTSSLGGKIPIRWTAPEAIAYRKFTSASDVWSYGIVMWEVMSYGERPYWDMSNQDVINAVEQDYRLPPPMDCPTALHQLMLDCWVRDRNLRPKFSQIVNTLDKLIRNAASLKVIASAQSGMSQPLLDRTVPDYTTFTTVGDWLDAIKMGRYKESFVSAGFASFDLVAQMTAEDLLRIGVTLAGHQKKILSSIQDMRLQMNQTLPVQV
Chain of UniProt P27448 (whole entry, looked up): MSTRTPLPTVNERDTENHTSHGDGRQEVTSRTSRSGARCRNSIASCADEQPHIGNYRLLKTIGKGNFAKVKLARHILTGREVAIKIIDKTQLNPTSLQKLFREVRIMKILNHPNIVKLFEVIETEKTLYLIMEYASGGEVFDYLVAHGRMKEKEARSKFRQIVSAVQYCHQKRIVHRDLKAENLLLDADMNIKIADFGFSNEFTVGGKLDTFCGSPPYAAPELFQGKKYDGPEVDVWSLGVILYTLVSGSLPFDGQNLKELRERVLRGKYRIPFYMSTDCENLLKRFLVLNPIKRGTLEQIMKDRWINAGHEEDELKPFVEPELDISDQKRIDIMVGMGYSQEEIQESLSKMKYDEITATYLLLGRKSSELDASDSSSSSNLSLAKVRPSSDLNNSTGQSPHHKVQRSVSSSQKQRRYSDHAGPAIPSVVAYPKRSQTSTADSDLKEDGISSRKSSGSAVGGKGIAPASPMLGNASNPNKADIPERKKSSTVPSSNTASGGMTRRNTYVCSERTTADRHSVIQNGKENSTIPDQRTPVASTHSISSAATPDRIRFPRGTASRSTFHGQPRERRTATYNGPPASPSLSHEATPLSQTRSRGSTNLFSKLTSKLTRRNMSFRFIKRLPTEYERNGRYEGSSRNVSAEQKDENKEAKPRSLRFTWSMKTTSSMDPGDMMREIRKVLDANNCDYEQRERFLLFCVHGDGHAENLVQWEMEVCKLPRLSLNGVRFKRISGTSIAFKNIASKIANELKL
Chain of UniProt P49840 (whole entry, looked up): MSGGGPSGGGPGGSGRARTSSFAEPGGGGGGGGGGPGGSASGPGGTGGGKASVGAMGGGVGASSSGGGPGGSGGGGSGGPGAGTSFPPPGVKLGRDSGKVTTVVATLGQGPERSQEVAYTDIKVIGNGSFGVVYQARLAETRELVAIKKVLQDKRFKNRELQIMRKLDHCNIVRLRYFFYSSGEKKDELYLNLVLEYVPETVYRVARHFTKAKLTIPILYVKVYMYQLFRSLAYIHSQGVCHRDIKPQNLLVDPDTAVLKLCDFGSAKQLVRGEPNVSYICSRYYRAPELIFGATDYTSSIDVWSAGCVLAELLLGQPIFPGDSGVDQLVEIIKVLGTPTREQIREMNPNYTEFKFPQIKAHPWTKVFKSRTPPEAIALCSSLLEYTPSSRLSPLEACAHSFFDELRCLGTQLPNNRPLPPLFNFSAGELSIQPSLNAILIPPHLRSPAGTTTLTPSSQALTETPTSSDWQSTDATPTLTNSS
Chain of UniProt P09769 (whole entry, looked up): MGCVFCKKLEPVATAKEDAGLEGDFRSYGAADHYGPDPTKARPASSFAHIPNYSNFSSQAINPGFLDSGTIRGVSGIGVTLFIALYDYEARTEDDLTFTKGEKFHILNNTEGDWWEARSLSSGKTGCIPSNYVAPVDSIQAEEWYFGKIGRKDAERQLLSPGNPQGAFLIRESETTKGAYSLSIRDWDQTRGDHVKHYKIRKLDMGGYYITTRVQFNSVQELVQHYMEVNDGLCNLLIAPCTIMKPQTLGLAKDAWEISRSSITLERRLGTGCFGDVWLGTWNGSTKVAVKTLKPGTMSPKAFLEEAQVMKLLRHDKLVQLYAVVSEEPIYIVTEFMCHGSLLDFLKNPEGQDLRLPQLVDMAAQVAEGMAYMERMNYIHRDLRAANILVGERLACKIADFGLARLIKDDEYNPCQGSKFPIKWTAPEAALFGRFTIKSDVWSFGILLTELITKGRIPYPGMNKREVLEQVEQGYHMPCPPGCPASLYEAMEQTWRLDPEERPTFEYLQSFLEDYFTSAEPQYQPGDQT
Chain of UniProt Q00526 (whole entry, looked up): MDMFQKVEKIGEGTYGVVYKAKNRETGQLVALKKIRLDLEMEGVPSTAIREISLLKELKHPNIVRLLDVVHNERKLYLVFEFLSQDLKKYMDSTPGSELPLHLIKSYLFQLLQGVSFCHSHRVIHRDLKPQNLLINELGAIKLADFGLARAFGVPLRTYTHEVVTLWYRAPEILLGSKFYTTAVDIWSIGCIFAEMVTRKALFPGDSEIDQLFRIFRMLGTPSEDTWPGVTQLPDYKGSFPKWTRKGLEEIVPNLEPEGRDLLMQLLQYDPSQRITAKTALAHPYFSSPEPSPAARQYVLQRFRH
Chain of UniProt P11309 (whole entry, looked up): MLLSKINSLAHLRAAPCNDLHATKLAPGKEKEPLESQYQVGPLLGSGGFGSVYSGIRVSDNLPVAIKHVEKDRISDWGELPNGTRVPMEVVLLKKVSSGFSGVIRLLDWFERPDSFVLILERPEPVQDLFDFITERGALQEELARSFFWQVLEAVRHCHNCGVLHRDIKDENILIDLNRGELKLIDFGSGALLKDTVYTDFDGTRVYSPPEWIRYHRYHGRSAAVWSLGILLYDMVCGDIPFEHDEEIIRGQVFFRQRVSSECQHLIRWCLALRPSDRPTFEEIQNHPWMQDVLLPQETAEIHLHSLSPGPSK
Chain of UniProt O00506 (whole entry, looked up): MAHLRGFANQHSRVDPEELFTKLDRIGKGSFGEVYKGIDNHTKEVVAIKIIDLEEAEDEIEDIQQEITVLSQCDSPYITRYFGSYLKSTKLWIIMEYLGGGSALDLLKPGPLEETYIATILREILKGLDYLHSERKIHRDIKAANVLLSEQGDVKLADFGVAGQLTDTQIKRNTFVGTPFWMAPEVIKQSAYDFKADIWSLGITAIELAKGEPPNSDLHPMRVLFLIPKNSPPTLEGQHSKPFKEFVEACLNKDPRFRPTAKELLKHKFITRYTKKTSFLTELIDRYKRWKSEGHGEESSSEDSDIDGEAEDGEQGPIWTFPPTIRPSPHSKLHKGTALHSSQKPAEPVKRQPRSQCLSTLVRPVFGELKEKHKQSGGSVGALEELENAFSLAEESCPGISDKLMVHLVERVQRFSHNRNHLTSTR

Series 1
SMILES: CC(=O)c1ccc(N2CCOCC2)cc1O
Effect on: enzyme activity
Action: inhibitor
Tested at: 0.5 µM
Reference: control
| target | remaining activity |
| --- | --- |
| MARK3 (Homo sapiens, UniProt P27448) | 108% |
| STK25 (Homo sapiens, UniProt O00506) | 90.9% |
| TAOK3 (Homo sapiens, UniProt Q9H2K8) | 98.4% |
| Insulin receptor (INSR, Homo sapiens, UniProt P06213) | 94% |
| PRKX (Homo sapiens, UniProt P51817) | 105% |
| FGR (Homo sapiens, UniProt P09769) | 95.6% |
| AKT1 (Homo sapiens, UniProt P31749) | 103% |
| ITK (Homo sapiens, UniProt Q08881) | 97% |
| Cyclin-dependent kinase 3, with cyclin E (CDK3, Homo sapiens, UniProt Q00526) | 102% |
| FYN (Homo sapiens, UniProt P06241) | 103% |
| CDC42BPA (Homo sapiens, UniProt Q5VT25) | 100% |
| ALK (Homo sapiens, UniProt Q9UM73) | 106% |
| HIPK1 (Homo sapiens, UniProt Q86Z02) | 93.9% |
| MATK (Homo sapiens, UniProt P42679) | 92.1% |
| LIM domain kinase 1 (LIMK1, Homo sapiens, UniProt P53667) | 93.6% |
| FLT4 (Homo sapiens, UniProt P35916) | 112% |
| NEK11 (Homo sapiens, UniProt Q8NG66) | 98.6% |
| NLK (Homo sapiens, UniProt Q9UBE8) | 95.6% |
| FER (Homo sapiens, UniProt P16591) | 90.4% |
| PKN1 (Homo sapiens, UniProt Q16512) | 108% |
| SRC (Homo sapiens, UniProt P12931) | 104% |
| PASK (Homo sapiens, UniProt Q96RG2) | 95% |

Series 2
Organism: Sarcocystis neurona
Effect on: parasite growth
Tested at: 10 µM
Time: 96 h
Setting: first screen
Reference: untreated
| Compound | log2 fold change |
| --- | --- |
| C[C@](N)(Cc1ccc(O)c(O)c1)C(=O)O | 0.23 |
| O=C(O)CCc1nc(-c2ccccc2)c(-c2ccccc2)o1 | 0.15 |
| C[C@]12CCC(=O)C=C1CC[C@@H]1[C@@H]2[C@@H](O)C[C@@]2(C)[C@H]1CC[C@]2(O)C(=O)CO | -0.27 |
| CC(c1cc2ccccc2s1)N(O)C(N)=O (stereo not shown) | 0.46 |
| CC1CNc2c(cccc2S(=O)(=O)N[C@@H](CCCNC(=N)N)C(=O)N2CC[C@@H](C)C[C@@H]2C(=O)O)C1 (stereo partly shown) | -0.22 |
| CCC(=O)O[C@]1(C(=O)CCl)[C@@H](C)C[C@H]2[C@@H]3CCC4=CC(=O)C=C[C@]4(C)[C@@]3(F)[C@@H](O)C[C@@]21C | -0.32 |
| CCC1(c2ccccc2)C(=O)NCNC1=O | 0.33 |
| C[C@H]1C[C@@H]2[C@H]([C@@H](O)C[C@@]3(C)[C@H]2CC[C@]3(O)C(=O)CO)[C@@]2(C)C=CC(=O)C=C12 | 0.19 |
| C#C[C@]1(O)CC[C@H]2[C@@H]3CCc4cc(O)ccc4[C@H]3CC[C@@]21C | 0.21 |
| CC(C)(O)c1ccccc1CC[C@@H](SCC1(CC(=O)O)CC1)c1cccc(/C=C/c2ccc3ccc(Cl)cc3n2)c1 | 0.36 |
| C#C[C@]1(OC(C)=O)CC[C@H]2[C@@H]3CCC4=CC(=O)CC[C@@H]4[C@H]3CC[C@@]21C | 0.08 |
| Clc1ccc2c(c1)C(N1CCNCC1)=Nc1ccccc1O2 | 0.0171 |
| O=c1c(O[C@@H]2O[C@H](CO)[C@H](O)[C@H](O)[C@H]2O)c(-c2ccc(O)c(O)c2)oc2cc(O)cc(O)c12 | -0.0464 |
| NC1CCN(c2nc3c(cc2F)c(=O)c(C(=O)O)cn3-c2ccc(F)cc2F)C1 (stereo not shown) | -0.34 |

Series 3
Structure (SMILES): CC(=O)N1CCC(c2ccc(C(=O)NC(=N)N)cc2C(F)(F)F)CC1
Effect on: cell-free assay
Method: competition with immobilised ligand
Tested at: 1 µM
| target | remaining binding |
| --- | --- |
| PIM1 (Homo sapiens, UniProt P11309) | 100% |
| EPHB3 (Homo sapiens, UniProt P54753) | 97% |
| MAP3K5 (Homo sapiens, UniProt Q99683) | 100% |
| SGK1 (Homo sapiens, UniProt O00141) | 100% |
| DAPK2 (Homo sapiens, UniProt Q9UIK4) | 100% |
| IGF1R (Homo sapiens, UniProt P08069) | 100% |
| ANKK1 (Homo sapiens, UniProt Q8NFD2) | 100% |
| EPHA2 (Homo sapiens, UniProt P29317) | 100% |
| SYK (Homo sapiens, UniProt P43405) | 100% |
| TEK (Homo sapiens, UniProt Q02763) | 96% |
| PIP5K1A (Homo sapiens, UniProt Q99755) | 94% |
| CDK7 (Homo sapiens, UniProt P50613) | 86% |
| PTK6 (Homo sapiens, UniProt Q13882) | 100% |
| MAPK4 (Homo sapiens, UniProt P31152) | 100% |
| CSNK1G2 (Homo sapiens, UniProt P78368) | 100% |
| GSK3A (Homo sapiens, UniProt P49840) | 97% |

Series 4
Species: mouse
Sample: microsomes or S9
Tested at: 2 µM
Time: 0.5 h
| SMILES | remaining compound [%] |
| --- | --- |
| Cc1ccc2c(c1)NC(=O)c1cc(S(=O)(=O)N(C)C)c(Oc3ccccc3Br)cc1O2 | 0.224 |
| CCCNC(=O)C1CN(CC(=O)Nc2ccccc2C(=O)NCc2ccccc2)c2ccccc2O1 (stereo not shown) | 3.21 |
| Cc1ccc(S(=O)(=O)C(C#N)c2nc3ccccc3nc2N2CC(C)OC(C)C2)cc1C (stereo not shown) | 2.93 |
| CC(C)n1cc(NC(=O)C2(C)Oc3ccccc3NC2=O)cn1 (stereo not shown) | 95.2 |
| Cc1ccc(Cl)cc1N1CCN(C(=O)C2CCCN(S(=O)(=O)c3ccccc3)C2)CC1 (stereo not shown) | 21.3 |
| COc1cc(=O)n2c(c1C(=O)NCc1ccc(F)cc1)CCCC2 | 53.3 |
| COCCCNC(=O)C(C)NS(=O)(=O)c1ccc(Br)cc1 (stereo not shown) | 50.9 |
| COCCNC(=O)C(c1ccc(Cl)cc1)N(CCOC)C(=O)CCC(=O)Nc1ccccn1 (stereo not shown) | 21.4 |
| COc1ccc(/C=N/n2cnnc2)cc1COc1cc(C)c(Cl)cc1C(C)C | > 100 |
| O=c1c(-c2nc3ccccc3nc2O)c[nH]n1-c1ccccc1 | 34.9 |
| CS(=O)(=O)N1CCCC1C(=O)Nc1nc2cc3c(cc2s1)OCO3 (stereo not shown) | 0.00485 |
| COC(=O)c1ccc(Oc2c(C)nn(C(=O)c3ccc(Cl)nc3)c2C)cc1 | 70 |
| CCc1cccc(N2C(=O)Nc3ccccc3N2O)c1 | 69.3 |
| CCC(CC)C(=O)N(Cc1ccccc1)Cc1nc(N(C)C)ncc1-c1ccccn1 | 0.873 |
| CCOC(=O)c1[nH]c(C)c(C(=O)CN2C(=O)NC(C)(C)C2=O)c1C | 17.7 |
